{"data": "Published values pooled from the literature", "note": "Parts stem from different laboratories: compare values within a part only. Positions count from the first letter of the parent shown."}
{"data": "Set 1", "target": "RING finger protein unkempt homolog, zinc fingers 1-6, GST-SBP tag (UNK, Homo sapiens, UniProt Q9C0B0, residues 30-357)", "technique": "RNA Bind-n-Seq", "molecule type": "RNA", "medium": "in vitro", "tested at": "not given", "notes": "RNA with constant flanks, human and mouse sites, ends assumed", "reference": "input RNA pool", "direction": "higher = stronger binding", "all sequences stand within": "GGGAGUUCUACAGUCCGACGAUC … CAACAGAGGAUUGAGCAUCA", "Target sequence (chain)": "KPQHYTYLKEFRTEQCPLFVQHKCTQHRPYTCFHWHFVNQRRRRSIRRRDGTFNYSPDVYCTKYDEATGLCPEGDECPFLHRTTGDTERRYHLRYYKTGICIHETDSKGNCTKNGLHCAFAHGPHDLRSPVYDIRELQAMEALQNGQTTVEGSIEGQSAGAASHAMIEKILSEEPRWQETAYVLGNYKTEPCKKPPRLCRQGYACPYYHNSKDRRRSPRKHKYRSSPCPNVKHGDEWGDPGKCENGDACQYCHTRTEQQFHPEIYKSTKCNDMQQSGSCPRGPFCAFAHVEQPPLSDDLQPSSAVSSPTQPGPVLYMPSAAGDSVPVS"}
{"Sequence": "AAUGCUGCCAGCUUUUUCUUUUUCUUUCUUUUUUUUUUUUUUUUUUCCUUCCAGGGCCGUUUUCUGAUAUAUGUUGGGUAUCAUAGAGUGAAUCUCAGAACAGGAAGCGGAGGCAUAAGC", "bound/input enrichment": "1.98 ratio"}
{"Sequence": "UGUUUUGUUAUUGCCUGGAUAUAUGGCGGUGAUAACUUAUAUGACGGUAUUGAGGACAUGAUUGGCUAUCGGCCUGGGCCCUGGAUGAAGUACAGCUGGGCUGUCAUCACUCCAGCUCUU", "bound/input enrichment": "0.144 ratio"}
{"Sequence": "ACCAUUCGGGAAAACAAUAAAAUUAAUAGAGUCAAUGAACUGAAUUCUGUAAAAGAAGUGGCUUUGGGUAGAAGCUUGGAUAACAAAGGAGACACUGAUGGAGAGGAUCAGGUUUGUGUU", "bound/input enrichment": "2.64 ratio"}
{"Sequence": "AGUUGUAGCUGCUGUCACUGACUCCCGGCUAUACAUGGCCUGUCGACCACGUUAUAGCCCUCAGGCCUGUUGAACUUGCUCUCUAAGAGAGGUUGGGACCAGGCUAGGUUCCGGGUGACG", "bound/input enrichment": "0.0751 ratio"}
{"Sequence": "GUAAAAAAGGACAAUAUUCUUGUUCGAUCUUUCAAAGAUGGAAAAUUUACUUCAGUUCCAAGAAAAGAUGUCCAUGAAAUUACUAGUGACACUGCACCAAAGCCUGAUGCUGUUUUAAAG", "bound/input enrichment": "0.302 ratio"}
{"Sequence": "CACGGCAUCCUUUUGAGUUUGAUUUCAUUCCUGGCUUUGUACCUUGUCAUUUCUUCUUGCCCUUCCCACACGCAUCCCCUUCCCUCCGCUUGCCGCACAUGUACUCAGUGGUGCUGUGCU", "bound/input enrichment": "0.327 ratio"}
{"Sequence": "UCUGAUGACUUUAAUUUUAAAAUCUUGUGACAUUUUGCUUAUACUAAAAGUUAUCUAUCUUUAGUUGAAUAUUUUCUUUUGGAGAGAUUGUAUAUUUUAAAAUACUGUUUAGAGUUUAUG", "bound/input enrichment": "2.34 ratio"}
{"Sequence": "CACUGCCCAGCUGGAGAACUGUCCAGUAUGGCCUGUUGACACCAUUCAGACCCCACAGGAGCGCUGUAUGUCCGUGCUCCUUUUCCCUUUUGGGCUGGUGCUGCCACUCAGCAAUAAUCC", "bound/input enrichment": "0.12 ratio"}
{"Sequence": "AGCAUUUGUCUUGAUAUUCUAAGAUCACAGUGGUCUCCUGCUUUAACUAUUUCUAAAGUUCUUUUAUCCAUUUGUUCACUGCUAUGUGAUCCAAACCCAGACGACCCCCUAGUGCCAGAG", "bound/input enrichment": "0.906 ratio"}
{"Sequence": "UUCUUUUCUGAAACCUUGUUUAACUGCCUUGCUUAUGGACCAGAAAAUACUCUACCAACUUUGGAUGAUGUAUCAGACAUUGAUGUUGCACAGAUUAUAAUCAAGAUAGAUUCUGCAACU", "bound/input enrichment": "0.18 ratio"}
{"Sequence": "GUUGAGUUGGCUUUGGUUGUCAUGAAGGAUCUUAGUCAGAAUUUUCCUACCAAAGCCAGAGCAAUAACAAAAACAGCUGUGAGCUCAGAACUUAGAACCGAAGUGGAAGAGAAUCAGAAG", "bound/input enrichment": "0.576 ratio"}
{"data": "Set 2", "target": "UBE2G2 UBC core domain (UniProt P60604)", "technique": "yeast two-hybrid", "medium": "yeast", "notes": "mostly zero background", "reference": "not given", "direction": "higher = stronger interaction", "B1": "TRIM40 RING domain (UniProt Q6P9F5); chain LQKDNQEEGVCPICQESLKEAVSTNCGHLFCRVCLTQHVEKASASGVFCCPLCRKPCSEEVLG", "B2": "TRIM4 RING domain (UniProt Q9C037); chain EAEDIQEELTCPICLDYFQDPVSIECGHNFCRGCLHRNWAPGGGPFPCPECRHPSAPAALRP", "B3": "TRIM5 RING domain (UniProt Q9C035); chain LREVKLSPEGQKVDHCARHGEKLLLFCQEDGKVICWLCERSQEHRGHHTFLTEEVAREYQVKL", "B4": "VPS41 RING domain (UniProt P49754); chain KGVLVDEENICESCLSPILPSDAAKPFSVVVFHCRHMFHKECLPMPSMNSAAQFCNICSAKNRGPGSAI", "B5": "RNF111 RING domain (UniProt Q6ZNA4); chain EGTEEDTEEKCTICLSILEEGEDVRRLPCMHLFHQVCVDQWLITNKKCPICRVDIEAQLPSE", "B6": "RNF208 RING domain (UniProt Q9H0X6); chain SSAAAGEPLECPTCGHSYNVTQRRPRVLSCLHSVCEQCLQILYESCPKYKFISCPTCRRETVLFTDYG", "B7": "TRIML1 RING domain (UniProt Q8N9V2); chain LMENLREELTCFICLDYFSSPVTTECGHSFCLVCLLRSWEEHNTPLSCPECWRTLEGPHFQS", "B8": "SH3RF2 RING domain (UniProt Q8TEC5); chain DDLTLLDLLECPVCFEKLDVTAKVLPCQHTFCKPCLQRVFKAHKELRCPECRTPVFSNIEAL", "Target sequence (chain)": "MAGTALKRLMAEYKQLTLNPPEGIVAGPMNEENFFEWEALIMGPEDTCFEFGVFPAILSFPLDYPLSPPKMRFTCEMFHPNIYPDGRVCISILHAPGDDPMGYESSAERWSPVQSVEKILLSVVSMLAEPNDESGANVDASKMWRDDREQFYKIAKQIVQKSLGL"}
{"Molecule": "VEPSEENSKDCVVCQNGTVNWVLLPCRHTCLCDGCVKYFQQCPMCRQFVQESFALC (CGRRF1 RING domain (UniProt Q99675))", "lacZ reporter activity": 0}
{"Molecule": "PAELEVQASECVVCLEREAQMIFLNCGHVCCCQQCCQPLRTCPLCRQDIAQRLRIY (LRSAM1 RING domain (UniProt Q6UWE0))", "lacZ reporter activity": 0}
{"Molecule": "B1 (TRIM40 RING domain)", "lacZ reporter activity": 0}
{"Molecule": "GAAPGPEAAECLVCSELALLVLFSPCQHRTVCEECARRMKKCIRCQVVVSKKLRPD (MIB2 RING domain (UniProt Q96AX9))", "lacZ reporter activity": 0}
{"Molecule": "B2 (TRIM4 RING domain)", "lacZ reporter activity": 0}
{"Molecule": "B3 (TRIM5 RING domain)", "lacZ reporter activity": 0}
{"Molecule": "B4 (VPS41 RING domain)", "lacZ reporter activity": 0}
{"Molecule": "B5 (RNF111 RING domain)", "lacZ reporter activity": 10200}
{"Molecule": "B6 (RNF208 RING domain)", "lacZ reporter activity": 0}
{"Molecule": "B7 (TRIML1 RING domain)", "lacZ reporter activity": 0}
{"Molecule": "B8 (SH3RF2 RING domain)", "lacZ reporter activity": 0}
{"Molecule": "DHGAVGQEMCCPICCSEYVKGEVATELPCHHYFHKPCVSIWLQKSGTCPVCRCMFPPPL (PJA1 RING domain (UniProt Q8NG27))", "lacZ reporter activity": 0}
{"data": "Set 3", "target": "ABI1, truncated, D143A, DHFR fusion (Arabidopsis thaliana)", "technique": "DHFR PCA, deep sequencing", "medium": "yeast", "notes": "methotrexate growth selection, single substitutions", "together with": "(+)-ABA 1.4 µM", "reference": "wild-type fitted maximum", "direction": "higher = stronger binding", "parent": "PYL1, truncated, DHFR fusion (Arabidopsis thaliana); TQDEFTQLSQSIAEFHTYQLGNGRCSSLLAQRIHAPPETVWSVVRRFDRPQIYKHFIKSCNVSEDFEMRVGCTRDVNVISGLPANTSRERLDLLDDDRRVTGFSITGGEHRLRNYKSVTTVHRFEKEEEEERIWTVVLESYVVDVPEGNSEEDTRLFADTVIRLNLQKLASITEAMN"}
{"Substitution": "Y115M", "relative binding score [%]": 0.451}
{"Substitution": "S9Y", "relative binding score [%]": 41.1}
{"Substitution": "N149M", "relative binding score [%]": 33.2}
{"Substitution": "T86L", "relative binding score [%]": 17.5}
{"Substitution": "S42Q", "relative binding score [%]": 57.6}
{"Substitution": "S9H", "relative binding score [%]": 69.9}
{"Substitution": "Y115G", "relative binding score [%]": -2.09}
{"Substitution": "L91I", "relative binding score [%]": 12.9}
{"Substitution": "L138P", "relative binding score [%]": -3.65}
{"Substitution": "R132H", "relative binding score [%]": 73.2}
{"Substitution": "S104L", "relative binding score [%]": 0.0114}
{"Substitution": "E147A", "relative binding score [%]": 40.8}
{"Substitution": "R45S", "relative binding score [%]": 9.29}
{"data": "Set 4", "target": "CCND3, cyclin fold, Cln2 fusion (human)", "technique": "yeast growth competition, sequencing", "medium": "yeast", "notes": "weak parent motif", "reference": "not given", "direction": "higher = stronger binding", "parent": "SCAPER docking peptide (human); SNARRSLNFGGST"}
{"Substitution": "F9G", "normalised enrichment score": 0.0723}
{"Substitution": "A3N", "normalised enrichment score": 0.24}
{"Substitution": "S12A", "normalised enrichment score": 0.182}
{"Substitution": "R5C", "normalised enrichment score": 0.056}
{"Substitution": "N2A", "normalised enrichment score": 0.198}
{"Substitution": "R4Y", "normalised enrichment score": 0.0343}
{"Substitution": "L7D", "normalised enrichment score": 0.16}
{"Substitution": "L7K", "normalised enrichment score": 0.128}
{"Substitution": "S12L", "normalised enrichment score": 0.21}
{"Substitution": "S12V", "normalised enrichment score": 0.0151}
{"Substitution": "A3R", "normalised enrichment score": 0.0404}
{"Substitution": "N2K", "normalised enrichment score": 0.0564}
{"Substitution": "S6D", "normalised enrichment score": 0.152}
{"Substitution": "L7W", "normalised enrichment score": 0.0339}
{"Substitution": "R5G", "normalised enrichment score": 0.0656}
{"Substitution": "N2V", "normalised enrichment score": 0.205}
{"Substitution": "T13L", "normalised enrichment score": 0.151}
